Experimental data gathered from unrelated publications.
Each numbered part is a random draw from the data of one study; scales do not carry over between parts. Values joined by “and” are separate records of one study, mostly repeats; a detail may differ.
Chain of UniProt Q13422 (whole entry, looked up): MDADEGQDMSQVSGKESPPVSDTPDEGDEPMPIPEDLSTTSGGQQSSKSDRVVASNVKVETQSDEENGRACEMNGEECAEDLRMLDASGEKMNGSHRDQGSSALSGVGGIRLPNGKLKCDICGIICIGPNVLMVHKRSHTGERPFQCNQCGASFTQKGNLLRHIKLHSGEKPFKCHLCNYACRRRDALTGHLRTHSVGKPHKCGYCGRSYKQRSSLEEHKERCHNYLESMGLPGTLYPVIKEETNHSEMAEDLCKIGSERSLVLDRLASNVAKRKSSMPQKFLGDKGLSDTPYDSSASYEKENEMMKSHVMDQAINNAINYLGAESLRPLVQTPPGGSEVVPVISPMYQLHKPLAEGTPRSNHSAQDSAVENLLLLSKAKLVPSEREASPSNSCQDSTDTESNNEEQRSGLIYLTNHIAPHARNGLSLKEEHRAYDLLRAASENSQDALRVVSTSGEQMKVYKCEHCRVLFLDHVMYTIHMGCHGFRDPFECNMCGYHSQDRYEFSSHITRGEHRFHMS
Chain of UniProt P15170 (whole entry, looked up): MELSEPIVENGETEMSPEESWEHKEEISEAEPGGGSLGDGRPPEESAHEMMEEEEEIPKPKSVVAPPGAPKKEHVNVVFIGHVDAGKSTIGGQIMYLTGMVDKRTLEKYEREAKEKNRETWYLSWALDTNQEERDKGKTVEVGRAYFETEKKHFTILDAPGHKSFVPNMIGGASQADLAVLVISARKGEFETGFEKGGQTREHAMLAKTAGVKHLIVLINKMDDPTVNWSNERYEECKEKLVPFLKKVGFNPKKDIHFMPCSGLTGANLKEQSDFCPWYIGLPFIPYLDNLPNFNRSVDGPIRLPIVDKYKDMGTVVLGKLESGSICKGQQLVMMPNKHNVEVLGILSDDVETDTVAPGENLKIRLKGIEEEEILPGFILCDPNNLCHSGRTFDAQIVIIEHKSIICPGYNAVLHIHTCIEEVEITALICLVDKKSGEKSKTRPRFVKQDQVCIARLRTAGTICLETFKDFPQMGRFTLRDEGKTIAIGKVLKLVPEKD
Chain of UniProt P49336 (whole entry, looked up): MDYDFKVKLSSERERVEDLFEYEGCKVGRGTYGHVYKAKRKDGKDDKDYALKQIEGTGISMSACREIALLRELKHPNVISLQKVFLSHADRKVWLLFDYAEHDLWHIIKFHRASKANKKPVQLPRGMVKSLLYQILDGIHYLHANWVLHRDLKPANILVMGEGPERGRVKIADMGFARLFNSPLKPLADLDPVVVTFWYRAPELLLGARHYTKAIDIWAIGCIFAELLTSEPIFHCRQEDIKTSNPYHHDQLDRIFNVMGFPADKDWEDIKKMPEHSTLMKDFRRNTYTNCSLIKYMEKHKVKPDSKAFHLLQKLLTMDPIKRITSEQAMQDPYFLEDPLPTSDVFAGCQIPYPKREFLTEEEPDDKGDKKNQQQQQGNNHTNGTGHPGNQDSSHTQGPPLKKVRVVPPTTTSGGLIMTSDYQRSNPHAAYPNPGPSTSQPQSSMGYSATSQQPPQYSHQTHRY

Series 1
SMILES: O=C(Nc1ccccc1)Nc1cccc(Oc2ccc3nccn3n2)c1
Read-out: binding
Concentration: 1 µM
target	test	remaining binding [%]
MAP2K5 (Homo sapiens, UniProt Q13163)	competition with immobilised ligand	63
CAMK2A (Homo sapiens, UniProt Q9UQM7)	–	100
PIKFYVE (Homo sapiens, UniProt Q9Y2I7)	–	100
CDK8 (Homo sapiens, UniProt P49336)	competition with immobilised ligand	24
ERBB3 (Homo sapiens, UniProt P21860)	competition with immobilised ligand	47
WEE1 (Homo sapiens, UniProt P30291)	competition with immobilised ligand	100
EIF2AK1 (Homo sapiens, UniProt Q9BQI3)	–	100
RIPK4 (Homo sapiens, UniProt P57078)	–	100

Series 2
Structure (SMILES): C[C@@H]1CN(c2ccc(-c3cc(C(=O)NCCOCCOCCOCCOCCOCCOCCNC(=O)/C=C/c4[nH]cc(C(=O)N[C@@H](CC(N)=O)c5ccc(F)c(Cl)c5)c4-c4ccc(Cl)cc4F)ccc3F)cc2NC(=O)c2ccc(F)cc2C(F)(F)F)C[C@H](C)N1C
Read-out: thermal unfolding
Method: differential scanning fluorimetry
Concentration: 5.5 µM
Direction: higher = more unfolded
WDR5: WD repeat-containing protein 5 (WDR5, Homo sapiens, UniProt P61964)
DCAF1: DDB1- and CUL4-associated factor 1 (DCAF1, Homo sapiens, UniProt Q9Y4B6)
Chain of UniProt Q9Y4B6 (whole entry, looked up): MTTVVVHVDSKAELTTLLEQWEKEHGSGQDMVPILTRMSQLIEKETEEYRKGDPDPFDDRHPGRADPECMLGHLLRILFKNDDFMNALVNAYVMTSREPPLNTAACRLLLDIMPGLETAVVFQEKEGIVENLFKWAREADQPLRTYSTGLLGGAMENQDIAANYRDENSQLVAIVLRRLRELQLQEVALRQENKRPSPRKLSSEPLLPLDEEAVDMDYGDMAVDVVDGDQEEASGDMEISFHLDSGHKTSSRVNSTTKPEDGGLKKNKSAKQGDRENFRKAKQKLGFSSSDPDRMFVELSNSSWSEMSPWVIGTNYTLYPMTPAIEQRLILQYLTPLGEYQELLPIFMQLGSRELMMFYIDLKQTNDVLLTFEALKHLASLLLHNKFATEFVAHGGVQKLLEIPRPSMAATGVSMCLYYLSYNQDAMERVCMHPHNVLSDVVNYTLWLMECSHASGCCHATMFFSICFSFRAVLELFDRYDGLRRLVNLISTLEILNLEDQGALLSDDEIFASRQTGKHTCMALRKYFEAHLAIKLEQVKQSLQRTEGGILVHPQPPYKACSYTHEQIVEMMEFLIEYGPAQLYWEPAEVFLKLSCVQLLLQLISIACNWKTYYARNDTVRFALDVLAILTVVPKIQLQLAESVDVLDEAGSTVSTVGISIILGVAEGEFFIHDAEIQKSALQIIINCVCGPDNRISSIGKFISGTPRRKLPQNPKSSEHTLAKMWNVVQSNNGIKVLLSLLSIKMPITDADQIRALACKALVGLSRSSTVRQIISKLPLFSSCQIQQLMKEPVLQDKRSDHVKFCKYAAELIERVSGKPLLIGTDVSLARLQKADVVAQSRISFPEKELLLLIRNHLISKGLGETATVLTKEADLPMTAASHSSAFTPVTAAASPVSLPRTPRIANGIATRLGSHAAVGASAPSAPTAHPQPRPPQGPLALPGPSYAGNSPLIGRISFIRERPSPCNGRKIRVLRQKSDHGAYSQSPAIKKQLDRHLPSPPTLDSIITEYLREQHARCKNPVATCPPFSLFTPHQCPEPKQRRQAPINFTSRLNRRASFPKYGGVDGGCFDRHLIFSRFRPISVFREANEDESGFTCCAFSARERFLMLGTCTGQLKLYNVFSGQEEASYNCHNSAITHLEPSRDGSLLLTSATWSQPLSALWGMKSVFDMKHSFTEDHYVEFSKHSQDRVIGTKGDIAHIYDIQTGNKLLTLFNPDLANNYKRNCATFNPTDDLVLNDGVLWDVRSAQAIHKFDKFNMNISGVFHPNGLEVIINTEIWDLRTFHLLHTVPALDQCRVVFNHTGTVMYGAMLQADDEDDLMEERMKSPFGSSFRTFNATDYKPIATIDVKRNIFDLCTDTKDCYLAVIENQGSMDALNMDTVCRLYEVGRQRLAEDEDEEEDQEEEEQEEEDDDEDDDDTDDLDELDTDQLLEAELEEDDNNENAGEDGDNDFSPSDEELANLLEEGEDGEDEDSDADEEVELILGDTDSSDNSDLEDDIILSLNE
target	setting	SYPRO Orange fluorescence
WDR5	74.01 °C	44400 a.u.
WDR5	63.81 °C	15500 a.u.
DCAF1	88.81 °C	33300 a.u.
DCAF1	32.6 °C	9160 a.u.
DCAF1	43.6 °C	13900 a.u.
DCAF1	63.61 °C	54100 a.u.
DCAF1	71.21 °C	47000 a.u.
WDR5	41.6 °C	14300 a.u.

Series 3
SMILES: COc1cc(C(=O)OCCCN2CCCN(CCCOC(=O)c3cc(OC)c(OC)c(OCc4ccc([N+](=O)[O-])cc4)c3)CC2)cc(OC)c1OC
Host: mice, male and female, formalin pain
Route: intrathecal
With: formalin 5%, 20 µL intraplantar
Direction: higher = more pain
setting	licking and flinching time
1 nmol, 0-10 min	195 a.u. and 196 a.u. and 268 a.u. and 203 a.u. and 206 a.u. and 207 a.u. and 170 a.u. and 281 a.u.
100 nmol, 0-10 min	157 a.u. and 162 a.u. and 195 a.u. and 180 a.u. and 196 a.u. and 191 a.u. and 193 a.u. and 152 a.u.
1 nmol, 20-25 min after formalin	56.8 a.u. and 66.4 a.u. and 13 a.u. and 16.3 a.u. and 96.4 a.u. and 159 a.u. and 92.2 a.u. and 50.2 a.u.
1 nmol, 15-20 min after formalin	32.4 a.u. and 11.3 a.u. and 22.7 a.u. and 11.8 a.u. and 87.5 a.u. and 49.9 a.u. and 54.5 a.u. and 40.5 a.u.
10 nmol, 30-35 min after formalin	51.1 a.u. and 20.9 a.u. and 99.9 a.u. and 41.7 a.u. and 43.1 a.u. and 24.7 a.u. and 2.56 a.u. and 1.24 a.u.

Series 4
SMILES: Cn1cc(-c2cccc(CN3CCC4(CC3)COc3c4ccc4c3CN([C@H]3CCC(=O)NC3=O)C4=O)c2)cn1
Mode: degrader
CRBN/Zinc finger protein Helios: CRBN/Zinc finger protein Helios (Homo sapiens, UniProt Q96SW2+Q9UKS7)
Chain of UniProt Q9UKS7 (whole entry, looked up): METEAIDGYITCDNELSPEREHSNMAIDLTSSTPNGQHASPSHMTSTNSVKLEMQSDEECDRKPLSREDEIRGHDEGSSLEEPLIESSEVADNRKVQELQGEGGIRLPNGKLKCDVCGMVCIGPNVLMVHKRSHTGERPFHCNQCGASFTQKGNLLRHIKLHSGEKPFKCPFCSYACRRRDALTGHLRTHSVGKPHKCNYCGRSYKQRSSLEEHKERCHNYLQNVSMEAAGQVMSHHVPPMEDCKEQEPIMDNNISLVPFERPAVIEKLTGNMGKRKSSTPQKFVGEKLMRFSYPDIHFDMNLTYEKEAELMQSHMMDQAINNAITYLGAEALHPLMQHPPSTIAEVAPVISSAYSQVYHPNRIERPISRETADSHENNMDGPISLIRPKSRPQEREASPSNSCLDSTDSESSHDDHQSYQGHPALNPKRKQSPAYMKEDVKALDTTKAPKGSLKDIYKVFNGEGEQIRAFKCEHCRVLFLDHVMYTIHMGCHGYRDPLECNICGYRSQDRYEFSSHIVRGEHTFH
Chain of UniProt Q96SW2 (whole entry, looked up): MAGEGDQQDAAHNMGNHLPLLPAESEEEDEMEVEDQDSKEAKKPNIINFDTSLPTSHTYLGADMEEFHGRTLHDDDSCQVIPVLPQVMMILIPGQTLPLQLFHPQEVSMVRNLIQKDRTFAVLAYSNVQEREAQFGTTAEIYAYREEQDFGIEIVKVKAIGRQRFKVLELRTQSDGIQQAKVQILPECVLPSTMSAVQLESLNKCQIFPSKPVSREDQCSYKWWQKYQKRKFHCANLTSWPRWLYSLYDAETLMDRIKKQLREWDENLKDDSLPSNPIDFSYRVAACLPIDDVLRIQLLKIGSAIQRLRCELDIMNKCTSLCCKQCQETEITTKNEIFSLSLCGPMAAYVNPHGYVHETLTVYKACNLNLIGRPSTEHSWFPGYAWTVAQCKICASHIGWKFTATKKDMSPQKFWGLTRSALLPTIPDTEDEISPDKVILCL
Zinc finger protein Aiolos: Zinc finger protein Aiolos (Homo sapiens, UniProt Q9UKT9)
Chain of UniProt Q9UKT9 (whole entry, looked up): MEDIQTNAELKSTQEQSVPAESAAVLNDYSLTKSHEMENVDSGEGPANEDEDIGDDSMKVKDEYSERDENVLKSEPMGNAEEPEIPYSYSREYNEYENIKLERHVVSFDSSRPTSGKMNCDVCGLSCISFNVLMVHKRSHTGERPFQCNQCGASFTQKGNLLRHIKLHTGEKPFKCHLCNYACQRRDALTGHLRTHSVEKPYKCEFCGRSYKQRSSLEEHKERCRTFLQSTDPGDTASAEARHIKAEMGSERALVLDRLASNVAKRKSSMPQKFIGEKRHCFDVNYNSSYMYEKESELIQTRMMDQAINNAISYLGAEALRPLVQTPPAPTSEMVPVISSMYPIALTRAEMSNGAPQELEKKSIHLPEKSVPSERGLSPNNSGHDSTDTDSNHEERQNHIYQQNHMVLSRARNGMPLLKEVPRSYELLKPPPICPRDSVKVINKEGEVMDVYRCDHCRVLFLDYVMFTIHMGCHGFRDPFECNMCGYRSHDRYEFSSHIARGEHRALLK
IKZF4: Zinc finger protein Eos (IKZF4, Homo sapiens, UniProt Q9H2S9)
Chain of UniProt Q9H2S9 (whole entry, looked up): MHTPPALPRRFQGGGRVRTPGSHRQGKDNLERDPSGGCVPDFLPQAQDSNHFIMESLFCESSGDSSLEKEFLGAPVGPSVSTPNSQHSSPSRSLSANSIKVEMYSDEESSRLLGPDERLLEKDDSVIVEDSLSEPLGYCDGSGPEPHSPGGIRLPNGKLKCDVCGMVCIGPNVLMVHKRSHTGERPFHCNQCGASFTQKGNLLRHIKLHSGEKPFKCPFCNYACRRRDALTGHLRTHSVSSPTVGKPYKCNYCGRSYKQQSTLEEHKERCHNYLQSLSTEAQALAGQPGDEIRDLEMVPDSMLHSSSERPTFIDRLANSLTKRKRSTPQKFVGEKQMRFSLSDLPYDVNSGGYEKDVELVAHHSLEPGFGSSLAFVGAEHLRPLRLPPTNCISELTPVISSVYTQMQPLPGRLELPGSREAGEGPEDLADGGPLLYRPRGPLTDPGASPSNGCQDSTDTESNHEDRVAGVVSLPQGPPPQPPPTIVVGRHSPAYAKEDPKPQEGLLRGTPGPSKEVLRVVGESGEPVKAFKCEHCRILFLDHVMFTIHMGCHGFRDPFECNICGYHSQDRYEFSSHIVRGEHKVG
target	test	test system	setting	remaining protein
CRBN/Zinc finger protein Helios	flow cytometry	primary human regulatory T cells	111.1 nM, 3 h	33.9% and 27.4%
CRBN/Zinc finger protein Helios	flow cytometry	primary human regulatory T cells	1000 nM, 6 h	4.62% and 7.58%
DNA-binding protein Ikaros (Homo sapiens, UniProt Q13422)	HiBiT	HEK293	123.5 nM	96.9% and 93.5%
Zinc finger protein Aiolos	HiBiT	HEK293	123.5 nM	96.1% and 87.6%
CRBN/Zinc finger protein Helios	flow cytometry	primary human regulatory T cells	111.1 nM, 6 h	12.4% and 8.88%
CRBN/Zinc finger protein Helios	flow cytometry	primary human regulatory T cells	0.1524 nM, 6 h	100% and 96.5%
GSPT1 (Homo sapiens, UniProt P15170)	HiBiT	HEK293	13.72 nM	99.9% and 99%
Zinc finger protein Aiolos	HiBiT	HEK293	41.15 nM	91.9% and 92.4%
IKZF4	HiBiT	HEK293	0.05081 nM, 3 h	107% and 95.3%
IKZF4	HiBiT	HEK293	1.372 nM, 6 h	103% and 104%
IKZF4	HiBiT	HEK293	0.1524 nM, 6 h	101% and 98.3%
IKZF4	HiBiT	HEK293	37.04 nM, 3 h	110% and 118%
IKZF4	HiBiT	HEK293	4.115 nM, 3 h	108% and 103%
Zinc finger protein Aiolos	HiBiT	HEK293	4.572 nM	93.2% and 96.6%
Sal-like protein 4 (SALL4, Homo sapiens, UniProt Q9UJQ4)	HiBiT	HEK293	0.1694 nM	80.9% and 107%
CRBN/Zinc finger protein Helios	flow cytometry	primary human regulatory T cells	4.115 nM, 3 h	80.1% and 89.4%

Excerpt of the above (series 4):
target	test	test system	setting	remaining protein
IKZF4	HiBiT	HEK293	1.372 nM, 6 h	103% and 104%
IKZF4	HiBiT	HEK293	0.1524 nM, 6 h	101% and 98.3%
IKZF4	HiBiT	HEK293	37.04 nM, 3 h	110% and 118%
IKZF4	HiBiT	HEK293	4.115 nM, 3 h	108% and 103%
Zinc finger protein Aiolos	HiBiT	HEK293	4.572 nM	93.2% and 96.6%
Sal-like protein 4 (SALL4, Homo sapiens, UniProt Q9UJQ4)	HiBiT	HEK293	0.1694 nM	80.9% and 107%
